Results gathered from unrelated publications.
Organism: Staphylococcus aureus

Structure (SMILES)	assay	test system	conditions	MIC
CCn1c(-c2ccc(-c3ccc(F)cc3)cc2)c(-c2ccc(-c3ccc(F)cc3)cc2)n(CC)c1=[Se]	microbial growth, broth dilution	ATCC700699 VISA	24 h, drug-resistant strain	> 40 µM
COc1ccc2ccc(O)c(/C=N/[C@H]3CCCC[C@H]3/N=C/c3cc(F)ccc3O)c2c1	bacterial growth, broth microdilution	vancomycin-intermediate		> 40 µM
C#CCOc1ccc(CN[C@@]2(C)C[C@H](O[C@H]3[C@H](Oc4c5cc6cc4Oc4ccc(cc4Cl)[C@@H](O)[C@@H](NC(=O)[C@@H](CC(C)C)NC)C(=O)N[C@@H](CC(N)=O)C(=O)N[C@H]6C(=O)N[C@H]4C(=O)N[C@H](C(=O)N[C@H](C(=O)N[C@@H](CCCNC(=N)N)C(N)=O)c6cc(O)cc(O)c6-c6cc4ccc6O)[C@H](O)c4ccc(c(Cl)c4)O5)O[C@H](CO)[C@@H](O)[C@@H]3O)O[C@@H](C)[C@H]2O)cc1OC		MRSA USA300		0.281 µM
Cc1ccc2[nH]c3c(c2c1)CCCC3NCCc1ccc(O)cc1 (stereo not drawn)	broth microdilution	SG511 daptomycin-resistant		16 mg/L
CC[C@H](C)[C@H](NC(=O)[C@@H](CCCNC(=N)N)NC(=O)[C@H](CCCNC(=N)N)NC(=O)[C@@H]1CCCN1C(=O)[C@@H]1CCCN1C(=O)[C@H](CCCNC(=N)N)NC(=O)[C@@H]1CCCN1C(=O)[C@H](CCCNC(=N)N)NC(=O)[C@@H]1CCCN1C(=O)[C@H](CC(C)C)NC(=O)[C@H](Cc1ccccc1)NC(=O)[C@@H]1CCCN1C(=O)[C@@H]1CCCN1C(=O)[C@H](CCCCN)NC(=O)[C@H](CC(=O)O)NC(=O)[C@@H](N)C(C)C)C(=O)N[C@@H](Cc1ccc(O)cc1)C(=O)N[C@@H](CC(N)=O)C(=O)N[C@H](CCCNC(=N)N)C(N)=O	broth microdilution	DSM 6247	18 h, 37 °C, 25% MHB2	> 128 mg/L
CC(C)CCCCCCCCC/C=C/C(=O)N[C@@H](CC(N)=O)C(=O)N[C@H]1CNC(=O)[C@@H]2CCCN2C(=O)[C@H](C(C)C)NC(=O)[C@@H](CN)NC(=O)CNC(=O)[C@H](CC(=O)O)NC(=O)CNC(=O)[C@H](CC(=O)O)NC(=O)[C@H](CC(=O)O)NC(=O)[C@H]2CCCCN2C1=O	broth microdilution	BR-VRSA strain 880, Mueller-Hinton broth, Mg2+ 10 mg/L	16 h, with: Ca2+ 5 mM	1 mg/L
CC[C@H](C)[C@H](NC(=O)CNC(=O)[C@@H](NC(=O)CNC(=O)[C@@H](NC(=O)CNC(=O)[C@@H](NC(=O)[C@@H](NC(=O)[C@H](CCC(N)=O)NC(=O)[C@H](CCC(=O)O)NC(=O)[C@@H](NC(=O)[C@H](CC(C)C)NC(=O)[C@H](CCCNC(=N)N)NC(=O)[C@H](Cc1ccccc1)NC(=O)[C@@H](NC(=O)[C@H](CC(N)=O)NC(=O)[C@H](CCCCN)NC(=O)CNC(=O)[C@H](CCSC)NC(=O)[C@H](CCCCN)NC(=O)CNC(=O)[C@H](CC(C)C)NC(=O)[C@H](CCCCN)NC(=O)[C@H](CCCCN)NC(=O)CNC(=O)[C@H](Cc1ccccc1)NC(=O)[C@H](CCCCN)NC(=O)[C@H](CCCCN)NC(=O)[C@H](CC(C)C)NC(=O)[C@H](Cc1c[nH]c2ccccc12)NC(=O)CN)C(C)C)C(C)C)C(C)C)C(C)C)C(C)C)C(C)C)C(=O)N[C@@H](CC(N)=O)C(=O)N[C@@H](C)C(=O)N[C@@H](CC(C)C)C(=O)N[C@@H](CO)C(=O)O	broth microdilution	ATCC 29213, Mueller-Hinton broth	16 to 20 h, 37 °C	17.6 mg/L
C=C(NC(=O)c1csc(-c2nc3c(cc2O)-c2nc(cs2)C(=O)NC(C(C)O)C(=O)NC(=C(C)OC)c2nc(cs2)C(=O)NC2c4nc(cs4)C(=O)NC(COC(=O)c4c5c6c(cccc6n4O)COC(=O)C(OC4CC(C)(O)C(N(C)C)C(C)O4)C2OC5)c2nc-3cs2)n1)C(N)=O (stereo not drawn)		MRSA strain 5		0.0156 mg/L
Nc1ccccc1C(=O)OCC#CCOC(=O)c1ccccc1N	microbial growth, broth dilution	MB2865		> 128 mg/L
CC[C@H](C)[C@@H]1NC(=O)[C@H](CO)NC(=O)[C@H](CCCCN)NC(=O)[C@@H]2CSSC[C@@H](C(=O)N[C@@H](Cc3ccc(O)cc3)C(N)=O)NC(=O)[C@H](CCCCN)NC(=O)[C@@H]3CSSC[C@H](NC(=O)[C@H](CCCNC(=N)N)NC(=O)[C@H](CC(C)C)NC(=O)[C@H](CC(=O)O)NC(=O)[C@H](CC(=O)O)NC(=O)[C@H](CCC(=O)O)NC(=O)[C@H](CC(N)=O)NC(=O)[C@H](Cc4c[nH]c5ccccc45)NC(=O)C(C)(CC)NC(=O)CNC(=O)[C@H](CC(N)=O)NC(=O)[C@@H](NC(=O)CNC(=O)[C@H](Cc4ccccc4)NC(=O)CN)CSSC[C@H](NC(=O)[C@H](Cc4ccc(O)cc4)NC(=O)CNC(=O)CNC(=O)[C@H](CCCCN)NC(=O)[C@H](Cc4ccc(O)cc4)NC(=O)[C@H]4CCCN4C(=O)[C@@H]4CCCN4C1=O)C(=O)N[C@@H](C)C(=O)N[C@@H](CCCCN)C(=O)N1CCC[C@@H]1C(=O)NCC(=O)N[C@@H](Cc1ccccc1)C(=O)N[C@@H](C(C)C)C(=O)N3)C(=O)N[C@@H](Cc1c[nH]cn1)C(=O)N[C@@H](CC(N)=O)C(=O)N[C@@H](Cc1c[nH]cn1)C(=O)N2 (stereo partly drawn)	broth microdilution	USA300 MRSA	18 h	2 µM
CC[C@H](C)[C@H](N)C(=O)NCC(=O)N[C@@H](CC(C)C)C(=O)N[C@H](CCC(=O)O)C(=O)N[C@H](C(=O)N[C@H]1CCCCNC(=O)[C@H](CC(N)=O)NC(=O)[C@@H](CC(=O)O)NC(=O)[C@H](Cc2c[nH]cn2)NC(=O)[C@@H](Cc2ccccc2)NC(=O)[C@H]([C@@H](C)CC)NC(=O)[C@@H](CCCN)NC1=O)[C@@H](C)CC		ATCC 29213 methicillin-susceptible	18 h, 37 °C, 0.3 mM ZnSO4 LB	> 64 mg/L
CC(=O)N[C@@H](CC(C)C)C(=O)N[C@H]1CSSC[C@@H](C(=O)N2CCC[C@H]2C(N)=O)NC(=O)[C@H]([C@@H](C)O)NC(=O)[C@H](C(C)C)NC(=O)[C@H]([C@@H](C)O)NC(=O)CNC(=O)[C@H](CC(C)C)NC(=O)[C@H](Cc2ccccc2)NC(=O)[C@H](Cc2ccc(O)cc2)NC(=O)[C@H](CC(C)C)NC(=O)[C@H](CCCCN)NC(=O)[C@H](Cc2ccccc2)NC(=O)[C@H](CCCNC(=N)N)NC(=O)[C@H](CCC(N)=O)NC(=O)[C@H](CC(C)C)NC(=O)[C@H](CCCCN)NC(=O)[C@@H]2CCCN2C(=O)[C@H](CCCCN)NC(=O)[C@H](C(C)C)NC(=O)[C@H](CCCCN)NC(=O)[C@H](Cc2ccc(O)cc2)NC(=O)[C@H]([C@@H](C)O)NC1=O	broth dilution	laboratory strain	24 h	5 to 10 µM
CC(C)C[C@@H](NC(=O)[C@@H](CCCNC(=N)N)NC(=O)[C@H](N)CCCNC(=N)N)C(=O)N[C@H](CC(C)C)C(=O)N[C@H](CCCNC(=N)N)C(=O)N[C@H](CCCCN)C(=O)N[C@H](CC(C)C)C(=O)N[C@H](CCCCN)C(=O)NCC(=O)N[C@H](CCCCN)C(=O)N[C@H](CCCCN)C(=O)N[C@H](CC(C)C)C(=O)N[C@H](Cc1ccc(O)cc1)C(=O)N[C@H](CC(C)C)C(=O)N[C@H](Cc1ccc(O)cc1)C(=O)N[C@H](Cc1ccccc1)C(=O)N[C@H](CCCCN)C(=O)N[C@H](CC(C)C)C(=O)N[C@H](CCC(N)=O)C(=O)N[C@H](CC(C)C)C(=O)N[C@H](CC(C)C)C(=O)N[C@H](CCCCN)C(=O)N[C@H](CCCCN)C(N)=O		KCTC 1621, Mueller-Hinton broth	with: 4.5 mM KCl	16 µM
C#CCOc1ccc(CN[C@@]2(C)C[C@H](O[C@H]3[C@H](Oc4c5cc6cc4Oc4ccc(cc4Cl)[C@@H](O)[C@@H](NC(=O)[C@@H](CC(C)C)NC)C(=O)N[C@@H](CC(N)=O)C(=O)N[C@H]6C(=O)N[C@H]4C(=O)N[C@H](C(=O)N[C@H](C(=O)O)c6cc(O)cc(O)c6-c6cc4ccc6O)[C@H](O)c4ccc(c(Cl)c4)O5)O[C@H](CO)[C@@H](O)[C@@H]3O)O[C@@H](C)[C@H]2O)cc1OC		NRS402 VISA		10 µM
CCCCCCCCCCCCCC(=O)N[C@H]1C(=O)N[C@@H](CN)C(=O)N[C@@H](CO)C(=O)N[C@@H](Cc2ccc(O)cc2)C(=O)O[C@H]1C		SH1000	with: lysophosphatidylethanolamine, molar ratio 2	2 mg/L

A few entries again:
Structure (SMILES)	assay	test system	conditions	MIC
COc1ccc2ccc(O)c(/C=N/[C@H]3CCCC[C@H]3/N=C/c3cc(F)ccc3O)c2c1	bacterial growth, broth microdilution	vancomycin-intermediate		> 40 µM
C#CCOc1ccc(CN[C@@]2(C)C[C@H](O[C@H]3[C@H](Oc4c5cc6cc4Oc4ccc(cc4Cl)[C@@H](O)[C@@H](NC(=O)[C@@H](CC(C)C)NC)C(=O)N[C@@H](CC(N)=O)C(=O)N[C@H]6C(=O)N[C@H]4C(=O)N[C@H](C(=O)N[C@H](C(=O)N[C@@H](CCCNC(=N)N)C(N)=O)c6cc(O)cc(O)c6-c6cc4ccc6O)[C@H](O)c4ccc(c(Cl)c4)O5)O[C@H](CO)[C@@H](O)[C@@H]3O)O[C@@H](C)[C@H]2O)cc1OC		MRSA USA300		0.281 µM
